Measured values from different studies.
Compare with care: the assays were run in different laboratories. ± marks the error that the study gave.

SMILES | test | system | setting | scale | endpoint | result
O=C(NC[C@H]1CN(c2ccc(N3CCOCC3=O)cc2)C(=O)O1)c1ccc(Cl)s1 | – | renal impairment patients | oral, 10 mg | relative to: normal renal function | half-life increase | 1 to 2 h
COc1cc(OC)c(/C=C/S(=O)(=O)Cc2ccc(OC)c(NCC(=O)O)c2)c(OC)c1 | – | cancer patients, phase I, plasma | oral, 280 mg twice daily, day 1 cycle 1 | – | half-life | 2.81 ± 0.77 h
CC(C)(c1ccc(O)cc1)c1ccc(O)cc1 | GC-MS | exposure tank water with snails, charcoal-filtered tap water | 1000 ng/L nominal, 22 °C | – | half-life | 5.89 h
Cc1ccc(NC(=O)c2ccc(CN3CCN(C)CC3)cc2)cc1Nc1nccc(-c2cncc(-c3oncc3C)c2)n1 | – | healthy volunteers, plasma | oral, 25.0 mg once daily, day 1, 7-day dosing, mean | – | half-life | 15.3 h
Cn1c(-c2ccc(C(N)=O)cc2F)nnc1C(C)(C)Oc1c(F)cc(Cl)cc1F | – | young Japanese adults, plasma | oral, 50 mg single dose, day 1, high-dose multiple-dose study | – | half-life mean | 11.3 h
CCOc1ccc(Cc2cc([C@@H]3S[C@H](CO)[C@@H](O)[C@H](O)[C@H]3O)c(OC)cc2C)cc1 | – | Japanese type 2 diabetes patients, plasma | oral, 5 mg single dose, eGFR below 30 mL/min/1.73 m^2 | – | half-life | 13.1 ± 3.62 h
NC(=O)c1cnc2[nH]ccc2c1N[C@@H]1[C@@H]2CC3C[C@H]1C[C@@](O)(C3)C2 | – | healthy Japanese men, plasma | oral, 60 mg, single dose fasted | – | half-life | 4 h
Cc1nc(-c2ccc(OCC(C)C)c(C#N)c2)sc1C(=O)O | – | pediatric patients, plasma | oral, 40 mg once daily, fed, PopPK post hoc, weight at least 40 kg | – | half-life at steady state | 8.71 ± 1.6 h

Some of these lines once more:
SMILES | test | system | setting | scale | endpoint | result
Cc1nc(-c2ccc(OCC(C)C)c(C#N)c2)sc1C(=O)O | – | pediatric patients, plasma | oral, 40 mg once daily, fed, PopPK post hoc, weight at least 40 kg | – | half-life at steady state | 8.71 ± 1.6 h
